Measurements collected from several papers.
Each line is one published result; not all experiments were run side by side.

With `CC(C)c1nc(N(C)S(C)(=O)=O)nc(-c2ccc(F)cc2)c1/C=C/[C@@H](O)C[C@@H](O)CC(=O)O` the Vz/F was 7470 L (human; oral, substrate with omaveloxolone, together with: omaveloxolone once daily).
`Cc1cc(C)c(CNC(=O)c2cc(Cl)c3c(c2C)O[C@@](C)([C@H]2CC[C@H](N(C)C)CC2)O3)c(=O)[nH]1` has a Vz/F of 449 L (mean; healthy male humans, plasma; oral, 25 mg, day 11, together with: itraconazole).
`CN1C(=O)[C@@H](NC(=O)c2nnc(Cc3ccccc3)[nH]2)COc2cccnc21` has a Vz/F of 44.1 L (healthy human, fasted, plasma; oral, 30 mg single dose, geometric mean).
For `CC(C)C[C@H](NC(=O)[C@H](CC(C)C)NC(=O)[C@H](Cc1c[nH]c2ccccc12)NC(=O)[C@H](CCC(=O)O)NC(=O)[C@@H](NC(=O)[C@H](Cc1ccccc1)NC(=O)[C@H](CCC(=O)O)NC(=O)[C@H](CCCCNC(=O)COCCOCCNC(=O)COCCOCCNC(=O)CC[C@H](NC(=O)CCCCCCCCCCCCCCCCCCC(=O)O)C(=O)O)NC(=O)[C@H](C)NC(=O)[C@H](CCCCN)NC(=O)[C@H](CCCCN)NC(=O)[C@H](CCC(=O)O)NC(=O)[C@H](CC(=O)O)NC(=O)[C@H](CC(C)C)NC(=O)[C@H](Cc1ccc(O)cc1)NC(=O)[C@H](CCCCN)NC(=O)[C@H](CO)NC(=O)[C@H](Cc1ccc(O)cc1)NC(=O)[C@H](CC(=O)O)NC(=O)[C@H](CO)NC(=O)[C@@H](NC(=O)[C@H](Cc1ccccc1)NC(=O)[C@@H](NC(=O)CNC(=O)[C@H](CCC(N)=O)NC(=O)C(C)(C)NC(=O)[C@@H](N)Cc1c[nH]cn1)[C@@H](C)O)[C@@H](C)O)C(C)C)C(=O)N[C@@H](CCC(=O)O)C(=O)NCC(=O)NCC(=O)N1CCC[C@H]1C(=O)N[C@@H](CO)C(=O)N[C@@H](CO)C(=O)NCC(N)=O`, the Vz/F was 6.5 L (human, plasma; subcutaneous, 16 mg once weekly, week 20, geometric mean).
`CN(C)C(=O)c1cc2cnc(Nc3ccc(N4CCNCC4)cn3)nc2n1C1CCCC1` gave a Vz/F of 2300 L (human, end-stage renal disease, plasma; oral, 400 mg, single dose, geometric mean).
With `C[C@@H](c1ccc2nccn2c1)n1nnc2ncc(-c3cnn(C)c3)nc21` the Vz/F was 138 L (human, plasma; oral, 300 mg, cycle 1 day 1, single dose).
With `CC1(C)CC[C@]2(NC(=O)C(C)(F)F)CC[C@]3(C)[C@H](C(=O)C=C4[C@@]5(C)C=C(C#N)C(=O)C(C)(C)[C@@H]5CC[C@]43C)[C@@H]2C1` the Vz/F was 14600 L (human; oral, 150 mg, single dose alone).
With `C#C[C@]1(CO)O[C@@H](n2cnc3c(N)nc(F)nc32)C[C@@H]1O` the Vz/F was 2400 L (human, plasma; oral, 15 mg, single dose, geometric mean).
`Cn1cc(-c2cn3nccc3c(-c3cnn([C@]4(CC#N)C[C@@H](C#N)C4)c3)n2)cn1` has a Vz/F of 434 L (healthy human, plasma; 30 mg once daily, day 10, multiple dose, fed, geometric mean).
The Vz/F of `NC(=S)NN=Cc1ncccc1N` is reported as 114 L (human, plasma; intravenous, 50 mg, geometric mean).
`CC(C)c1nc(N(C)S(C)(=O)=O)nc(-c2ccc(F)cc2)c1/C=C/[C@@H](O)C[C@@H](O)CC(=O)O` gave a Vz/F of 5920 L (healthy human subjects, plasma; oral, 10 mg, arithmetic mean, together with: none).
For `Fc1ccc([C@@H]2CCNC[C@H]2COc2ccc3c(c2)OCO3)cc1`, the Vz/F was 1130 L (human, all CYP2D6 genotypes; oral, 20 mg, steady state, geometric mean).
`CNC(=O)n1ccc2cc(Oc3ccnc(NC(=O)c4ccc(C5CCN(CCO)CC5)cc4)c3)c(OCCOC)cc21` gave a Vz/F of 13700 L (healthy human, plasma; oral, 35 mg, geometric mean, alone).
`[H]/N=C(/N)c1ccc(NCc2nc3cc(C(=O)N(CCC(=O)O)c4ccccn4)ccc3n2C)cc1` gave a Vz/F of 1910 L (healthy human subjects, plasma; oral, 150 mg, dabigatran etexilate alone, arithmetic mean).
`C[C@H]1O[C@@H](O[C@H]2[C@@H](O)C[C@H](O[C@H]3[C@@H](O)C[C@H](O[C@H]4CC[C@@]5(C)[C@H](CC[C@@H]6[C@@H]5C[C@@H](O)[C@]5(C)[C@@H](C7=CC(=O)OC7)CC[C@]65O)C4)O[C@@H]3C)O[C@@H]2C)C[C@H](O)[C@@H]1O` has a Vz/F of 759 L (human; oral, substrate with omaveloxolone, together with: omaveloxolone once daily).
The Vz/F of `C[C@H](Oc1ccc(Br)cc1-c1ccon1)C(=O)O` is reported as 31.6 L (human, plasma; oral, 400 mg twice daily, day 10, multiple ascending dose).
The Vz/F of `CNC(=O)c1c(C)oc2cc(Oc3ncnc4cc(OC)c(OC)cc34)ccc12` is reported as 43.4 L (healthy human subjects, plasma; oral, 5 mg, arithmetic mean, together with: dabigatran etexilate 150 mg).
The Vz/F of `O=C1CC[C@H](N2Cc3cc(N4CCN(CC5CCN(c6ccc([C@@H]7c8ccc(O)cc8CC[C@@H]7c7ccccc7)cc6)CC5)CC4)ccc3C2=O)C(=O)N1` is reported as 330 L (human; oral, 200 mg, together with: rosuvastatin 10 mg).

For quick reference, copied from above:
`[H]/N=C(/N)c1ccc(NCc2nc3cc(C(=O)N(CCC(=O)O)c4ccccn4)ccc3n2C)cc1` gave a Vz/F of 1910 L (healthy human subjects, plasma; oral, 150 mg, dabigatran etexilate alone, arithmetic mean).
With `C#C[C@]1(CO)O[C@@H](n2cnc3c(N)nc(F)nc32)C[C@@H]1O` the Vz/F was 2400 L (human, plasma; oral, 15 mg, single dose, geometric mean).
For `CC(C)C[C@H](NC(=O)[C@H](CC(C)C)NC(=O)[C@H](Cc1c[nH]c2ccccc12)NC(=O)[C@H](CCC(=O)O)NC(=O)[C@@H](NC(=O)[C@H](Cc1ccccc1)NC(=O)[C@H](CCC(=O)O)NC(=O)[C@H](CCCCNC(=O)COCCOCCNC(=O)COCCOCCNC(=O)CC[C@H](NC(=O)CCCCCCCCCCCCCCCCCCC(=O)O)C(=O)O)NC(=O)[C@H](C)NC(=O)[C@H](CCCCN)NC(=O)[C@H](CCCCN)NC(=O)[C@H](CCC(=O)O)NC(=O)[C@H](CC(=O)O)NC(=O)[C@H](CC(C)C)NC(=O)[C@H](Cc1ccc(O)cc1)NC(=O)[C@H](CCCCN)NC(=O)[C@H](CO)NC(=O)[C@H](Cc1ccc(O)cc1)NC(=O)[C@H](CC(=O)O)NC(=O)[C@H](CO)NC(=O)[C@@H](NC(=O)[C@H](Cc1ccccc1)NC(=O)[C@@H](NC(=O)CNC(=O)[C@H](CCC(N)=O)NC(=O)C(C)(C)NC(=O)[C@@H](N)Cc1c[nH]cn1)[C@@H](C)O)[C@@H](C)O)C(C)C)C(=O)N[C@@H](CCC(=O)O)C(=O)NCC(=O)NCC(=O)N1CCC[C@H]1C(=O)N[C@@H](CO)C(=O)N[C@@H](CO)C(=O)NCC(N)=O`, the Vz/F was 6.5 L (human, plasma; subcutaneous, 16 mg once weekly, week 20, geometric mean).
